Assay results of several laboratories.
Lines come from different studies, so protocols differ. Several values in a cell are separate wells, animals, samples, runs or records. ± marks the error that the study gave.

Amino acid sequences for entries named in this document (tags omitted). Chains listed by the source or under a name are the forms on record and can include a tag or linker. Residues count along the entry.
UniProt P08510, 1-655 with tags or gaps DEL6-46: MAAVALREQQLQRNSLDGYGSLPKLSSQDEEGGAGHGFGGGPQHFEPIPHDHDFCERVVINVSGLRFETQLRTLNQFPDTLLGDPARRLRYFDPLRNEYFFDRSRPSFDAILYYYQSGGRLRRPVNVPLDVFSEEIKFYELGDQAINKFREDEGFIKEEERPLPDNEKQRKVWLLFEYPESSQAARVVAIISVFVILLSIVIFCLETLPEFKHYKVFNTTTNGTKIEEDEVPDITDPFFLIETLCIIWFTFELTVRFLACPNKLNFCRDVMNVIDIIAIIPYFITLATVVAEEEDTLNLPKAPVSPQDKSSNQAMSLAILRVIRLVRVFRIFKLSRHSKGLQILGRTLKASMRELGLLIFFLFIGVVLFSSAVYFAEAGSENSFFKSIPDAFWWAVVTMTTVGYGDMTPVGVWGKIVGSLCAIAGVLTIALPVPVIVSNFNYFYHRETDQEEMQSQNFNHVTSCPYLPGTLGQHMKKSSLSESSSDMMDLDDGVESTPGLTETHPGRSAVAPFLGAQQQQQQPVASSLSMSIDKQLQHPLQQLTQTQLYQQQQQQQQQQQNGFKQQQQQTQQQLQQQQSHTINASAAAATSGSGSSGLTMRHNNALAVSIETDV

| SMILES | tested on | test | test system | conditions | how to read | measurement | result |
| --- | --- | --- | --- | --- | --- | --- | --- |
| CC(C)[C@H]1CC[C@@H](N2CCC3(CC2)C(=O)NCN3c2ccccc2)CC1 | – | twitch contraction, electrical stimulation | mouse, mouse vas deferens | – | – | Emax | 100 % inhibition |
| CC[C@H](C)[C@H](NC(=O)[C@H](C)NC(=O)[C@H](CCC(=O)O)NC(=O)[C@H](CCC(=O)O)NC(=O)[C@H](CC(C)C)NC(=O)[C@H](CCCCN)NC(=O)[C@H](CCCCN)NC(=O)[C@H](CCSC)NC(=O)[C@H](CCC(=O)O)NC(=O)[C@H](Cc1ccc(O)cc1)NC(=O)[C@H](CCC(=O)O)NC(=O)[C@H](CC(C)C)NC(=O)[C@H](CC(=O)O)NC(=O)[C@H](CC(C)C)NC(=O)[C@H](Cc1ccccc1)NC(=O)[C@H](Cc1ccc(O)cc1)NC(=O)[C@@H](NC(=O)[C@H](CC(N)=O)NC(=O)[C@@H](NC(=O)[C@H](CCC(N)=O)NC(=O)[C@H](CC(=O)O)NC(=O)[C@H](CC(C)C)NC(=O)[C@@H](N)CO)[C@@H](C)CC)C(C)C)C(=O)N[C@@H](CCCCN)C(=O)N[C@@H](CCCCN)C(=O)N[C@@H](CC(C)C)C(=O)N[C@@H](CCC(=O)O)C(=O)N[C@@H](CCC(=O)O)C(=O)N[C@@H](C)C(=O)N[C@@H](Cc1ccc(O)cc1)C(=O)N[C@H](C(=O)N[C@@H](CC(=O)O)C(=O)N[C@@H](CC(C)C)C(=O)N[C@@H](CCCCN)C(=O)N[C@@H](CCC(=O)O)C(=O)N[C@@H](CC(C)C)C(=O)O)[C@@H](C)CC | SARS-CoV-2 JN.1 pseudovirus | pseudovirus infection, inhibitor, luciferase | Caco-2 | 24 h, dual mutations | – | IC50 | 38.1 nM |
| CC(=O)Oc1ccc(CON2C(=O)CCC2=O)cc1 | hiPSC-derived neurons, human | SNAP-25 cleavage protection | – | added: botulinum neurotoxin A | – | EC50 | 4900 nM |
| Nc1ccc([As]=O)cc1 (centres unmarked) | RKO | cell viability, MTS | – | – | – | IC50 | 2990 ± 40 nM |
| CS(=O)(=O)Cc1onc(-c2cccc(Cl)c2)c1-c1ccnc(N[C@@H]2CCN(C(=O)c3nccs3)C2)n1 | Plasmodium falciparum | parasite growth | 3D7 A10 | concentration not given, asexual blood stage | – | activity class | active |
| CC[C@H](C)[C@H](NC(=O)[C@H](C)NC(=O)[C@H](CCC(=O)O)NC(=O)[C@H](CCC(=O)O)NC(=O)[C@H](CC(C)C)NC(=O)[C@H](CCCCN)NC(=O)[C@H](CCCCN)NC(=O)[C@H](CCSC)NC(=O)[C@H](CCC(=O)O)NC(=O)[C@H](Cc1ccc(O)cc1)NC(=O)[C@H](CCC(=O)O)NC(=O)[C@H](CC(C)C)NC(=O)[C@H](CC(=O)O)NC(=O)[C@H](CC(C)C)NC(=O)[C@H](Cc1ccccc1)NC(=O)[C@H](Cc1ccccc1)NC(=O)[C@@H](NC(=O)[C@H](CC(N)=O)NC(=O)[C@@H](NC(=O)[C@H](CCC(N)=O)NC(=O)[C@H](CC(=O)O)NC(=O)[C@H](CC(C)C)NC(=O)[C@@H](N)CO)[C@@H](C)CC)C(C)C)C(=O)N[C@@H](CCCCN)C(=O)N[C@@H](CCCCN)C(=O)N[C@@H](CC(C)C)C(=O)N[C@@H](CCC(=O)O)C(=O)N[C@@H](CCC(=O)O)C(=O)N[C@@H](CO)C(=O)N[C@@H](Cc1ccc(O)cc1)C(=O)N[C@H](C(=O)N[C@@H](CC(=O)O)C(=O)N[C@@H](CC(C)C)C(=O)N[C@@H](CCCCN)C(=O)N[C@@H](CCC(=O)O)C(=O)N[C@@H](CC(C)C)C(=O)O)[C@@H](C)CC | SARS-CoV-2 Gamma pseudovirus | pseudovirus infection, inhibitor, luciferase | Caco-2 | 24 h | – | IC50 | 615 nM |
| CC[C@H](C)[C@@H]1NC(=O)[C@H](CCCNC(=N)N)NC(=O)[C@@H](N)CSSC[C@@H]2NC(=O)[C@@H]3CSSC[C@@H](C(=O)N[C@H](C(=O)O)C(C)C)NC(=O)[C@H](CCCCN)NC(=O)[C@H](CC(N)=O)NC(=O)[C@H](Cc4ccccc4)NC(=O)[C@H](CCCNC(=N)N)NC(=O)[C@H](CC(N)=O)NC(=O)[C@H](CSSC[C@H](NC(=O)[C@H](CCCCN)NC(=O)[C@H](CCC(N)=O)NC(=O)[C@H](CC(N)=O)NC(=O)[C@@H]4C[C@@H](O)CN4C1=O)C(=O)N[C@@H](Cc1ccccc1)C(=O)N[C@@H](CCC(N)=O)C(=O)N[C@@H](Cc1c[nH]cn1)C(=O)N[C@@H](CC(C)C)C(=O)N[C@@H](CC(=O)O)C(=O)N[C@@H](CC(=O)O)C(=O)N3)NC(=O)[C@H](CCCCN)NC(=O)[C@H](CCCNC(=N)N)NC(=O)[C@H](CO)NC2=O | Sh (Drosophila melanogaster, UniProt P08510, del6-46) | potassium current, two-electrode voltage clamp | Xenopus oocytes | external K 2 mM, zero voltage | – | koff | 21 ± 2 s⁻¹ |
| O=C(CSc1ccccc1)N1CCCC2(C1)Nc1cccnc1N=C2NC1CCCC1 (centres unmarked) | HepG2 | cell viability, CellTiter-Glo | – | 72 h | – | CC50 | > 70000 nM |
| Cc1cc(C(=O)N[C@@H](Cc2cccc3ccccc23)C(=O)N[C@@H](CC(C)C)C(=O)N[C@H](C=O)C[C@@H]2CCCNC2=O)no1 | human rhinovirus 16 | cytopathic effect, SRB | MRC-5 | 3 days | – | EC90 | 700 ± 200 nM |
| O=C(NC1CCN(c2ncnc3[nH]cnc23)CC1)c1cccc(S(=O)(=O)Nc2ccc(Cl)cc2)c1 | SARS-CoV-2 | viral infection | Wuhan-Hu-1 | – | – | IC50 | 1400 nM |
| c1ccc2c(NC3CCNCC3)nc(NCc3ccc(CNCCCNC4CCCCC4)cc3)nc2c1 | TZM-bl | – | – | – | relative to: CC50 over anti-HIV EC50 | selectivity index | > 731 |
| CC[C@H](C)[C@H](NC(=O)[C@H](C)NC(=O)[C@H](CCC(=O)O)NC(=O)[C@H](CCC(=O)O)NC(=O)[C@H](CC(C)C)NC(=O)[C@H](CCCCN)NC(=O)[C@H](CCCCN)NC(=O)[C@H](CCSC)NC(=O)[C@H](CCC(=O)O)NC(=O)[C@H](Cc1ccc(O)cc1)NC(=O)[C@H](CCC(=O)O)NC(=O)[C@H](CC(C)C)NC(=O)[C@H](CC(=O)O)NC(=O)[C@H](CC(C)C)NC(=O)[C@H](Cc1ccccc1)NC(=O)[C@@H](NC(=O)[C@@H](NC(=O)[C@H](CC(N)=O)NC(=O)[C@@H](NC(=O)[C@H](CCC(N)=O)NC(=O)[C@H](CC(=O)O)NC(=O)[C@H](CC(C)C)NC(=O)[C@@H](N)CO)[C@@H](C)CC)C(C)C)[C@@H](C)O)C(=O)N[C@@H](CCCCN)C(=O)N[C@@H](CCCCN)C(=O)N[C@@H](CC(C)C)C(=O)N[C@@H](CCC(=O)O)C(=O)N[C@@H](CCC(=O)O)C(=O)N[C@@H](C)C(=O)N[C@@H](Cc1ccc(O)cc1)C(=O)N[C@H](C(=O)N[C@@H](CC(=O)O)C(=O)N[C@@H](CC(C)C)C(=O)N[C@@H](CCCCN)C(=O)N[C@@H](CCC(=O)O)C(=O)N[C@@H](CC(C)C)C(=O)O)[C@@H](C)CC | SARS-CoV-2 XBB.1.5 pseudovirus | pseudovirus infection, inhibitor, luciferase | Caco-2 | 24 h | – | IC50 | 1910 nM |
| NCc1ccc(-c2ncc(OCC3CCNCC3)nc2-c2ccc(-c3ccoc3)cc2)cc1 | Zika virus | – | ZIKV-FLR, C57BL/6 mice, interferon receptor knockout | 30 mg/kg/day, 3 days, mean survival | – | survival time | 15.1 days |
| Cc1ccc(S(=O)(=O)Nc2cccc(C(=O)NC3CCN(c4ncnc5[nH]cnc45)CC3)c2)cc1 | monkeypox virus E1/E12 | – | – | 3.125 µM | – | inhibition | 16.4% and 10.3% |
| O=C(Nc1cc(F)cc(F)c1)N1CCCC2(C1)Nc1cccnc1N=C2NC1CCCC1 (centres unmarked) | HepG2 | cell viability, CellTiter-Glo | – | 72 h | – | CC50 | > 70000 nM |
| CC[C@H](C)[C@H](NC(=O)[C@H](C)NC(=O)[C@H](CCC(=O)O)NC(=O)[C@H](CCC(=O)O)NC(=O)[C@H](CC(C)C)NC(=O)[C@H](CCCCN)NC(=O)[C@H](CCCCN)NC(=O)[C@H](CCSC)NC(=O)[C@H](CCC(=O)O)NC(=O)[C@H](Cc1ccc(O)cc1)NC(=O)[C@H](CCC(=O)O)NC(=O)[C@H](CC(C)C)NC(=O)[C@H](CC(=O)O)NC(=O)[C@H](CC(C)C)NC(=O)[C@H](Cc1ccccc1)NC(=O)[C@H](Cc1ccccc1)NC(=O)[C@@H](NC(=O)[C@H](CC(N)=O)NC(=O)[C@@H](NC(=O)[C@H](CCC(N)=O)NC(=O)[C@H](CC(=O)O)NC(=O)[C@H](CC(C)C)NC(=O)[C@@H](N)CO)[C@@H](C)CC)C(C)C)C(=O)N[C@@H](CCCCN)C(=O)N[C@@H](CCCCN)C(=O)N[C@@H](CC(C)C)C(=O)N[C@@H](CCC(=O)O)C(=O)N[C@@H](CCC(=O)O)C(=O)N[C@H](C(=O)N[C@@H](Cc1ccc(O)cc1)C(=O)N[C@H](C(=O)N[C@@H](CC(=O)O)C(=O)N[C@@H](CC(C)C)C(=O)N[C@@H](CCCCN)C(=O)N[C@@H](CCC(=O)O)C(=O)N[C@@H](CC(C)C)C(=O)O)[C@@H](C)CC)[C@@H](C)O | SARS-CoV-2 Gamma pseudovirus | pseudovirus infection, inhibitor, luciferase | Caco-2 | 24 h, dual mutations | – | IC50 | 620 nM |
| COc1ccc(S(=O)(=O)Nc2cccc(C(=O)NC3CCN(c4ncnc5[nH]cnc45)CC3)c2)cc1 | SARS-CoV-2 | – | Wuhan-Hu-1 | 2.469 µM | relative to: untreated infected cells | relative infection | 51.6% |
| CCOP(=O)(OCC)ON1C(=O)c2cccc3cccc(c23)C1=O | carboxylesterase (rat) | enzyme activity, inhibitor | rat, postnatal day 70, rat liver homogenate | added: p-nitrophenyl valerate | – | IC50 | 5.7 nM |
| O=C(NC1CCN(c2ncnc3[nH]cnc23)CC1)c1cccc(NS(=O)(=O)c2ccc(Cl)cc2)c1 | SARS-CoV-2 | – | Wuhan-Hu-1 | 2.469 µM | relative to: untreated infected cells | relative infection | 43.5% |
| CC[C@H](C)[C@H](NC(=O)[C@H](C)NC(=O)[C@H](CCC(=O)O)NC(=O)[C@H](CCC(=O)O)NC(=O)[C@H](CC(C)C)NC(=O)[C@H](CCCCN)NC(=O)[C@H](CCCCN)NC(=O)[C@H](CCSC)NC(=O)[C@H](CCC(=O)O)NC(=O)[C@H](Cc1ccc(O)cc1)NC(=O)[C@H](CCC(=O)O)NC(=O)[C@H](CC(C)C)NC(=O)[C@H](CC(=O)O)NC(=O)[C@H](CC(C)C)NC(=O)[C@H](Cc1ccccc1)NC(=O)[C@@H](NC(=O)[C@@H](NC(=O)[C@H](CC(N)=O)NC(=O)[C@@H](NC(=O)[C@H](CCC(N)=O)NC(=O)[C@H](CC(=O)O)NC(=O)[C@H](CC(C)C)NC(=O)[C@@H](N)CO)[C@@H](C)CC)C(C)C)[C@@H](C)O)C(=O)N[C@@H](CCCCN)C(=O)N[C@@H](CCCCN)C(=O)N[C@@H](CC(C)C)C(=O)N[C@@H](CCC(=O)O)C(=O)N[C@@H](CCC(=O)O)C(=O)N[C@H](C(=O)N[C@@H](Cc1ccc(O)cc1)C(=O)N[C@H](C(=O)N[C@@H](CC(=O)O)C(=O)N[C@@H](CC(C)C)C(=O)N[C@@H](CCCCN)C(=O)N[C@@H](CCC(=O)O)C(=O)N[C@@H](CC(C)C)C(=O)O)[C@@H](C)CC)[C@@H](C)O | SARS-CoV-2 Alpha pseudovirus | pseudovirus infection, inhibitor, luciferase | Caco-2 | 24 h | – | IC50 | 1210 nM |
